{"data": "Measured values gathered from unrelated publications", "note": "Numbered parts are unrelated; each lists some results of a single study. “And” joins repeats or separate records; there may be more than shown.", "sequence of UniProt Q14012 (whole entry, looked up)": "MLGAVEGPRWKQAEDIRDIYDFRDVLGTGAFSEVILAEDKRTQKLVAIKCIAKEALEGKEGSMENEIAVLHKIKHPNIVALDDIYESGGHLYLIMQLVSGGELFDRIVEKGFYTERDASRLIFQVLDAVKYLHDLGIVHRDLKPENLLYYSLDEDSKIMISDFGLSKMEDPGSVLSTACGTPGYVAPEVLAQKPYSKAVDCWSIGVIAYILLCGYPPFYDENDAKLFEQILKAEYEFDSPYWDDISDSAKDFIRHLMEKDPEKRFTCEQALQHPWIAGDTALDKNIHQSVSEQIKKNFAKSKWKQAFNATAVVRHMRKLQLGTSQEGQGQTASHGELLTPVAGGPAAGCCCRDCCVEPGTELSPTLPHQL", "sequence of UniProt Q13554 (whole entry, looked up)": "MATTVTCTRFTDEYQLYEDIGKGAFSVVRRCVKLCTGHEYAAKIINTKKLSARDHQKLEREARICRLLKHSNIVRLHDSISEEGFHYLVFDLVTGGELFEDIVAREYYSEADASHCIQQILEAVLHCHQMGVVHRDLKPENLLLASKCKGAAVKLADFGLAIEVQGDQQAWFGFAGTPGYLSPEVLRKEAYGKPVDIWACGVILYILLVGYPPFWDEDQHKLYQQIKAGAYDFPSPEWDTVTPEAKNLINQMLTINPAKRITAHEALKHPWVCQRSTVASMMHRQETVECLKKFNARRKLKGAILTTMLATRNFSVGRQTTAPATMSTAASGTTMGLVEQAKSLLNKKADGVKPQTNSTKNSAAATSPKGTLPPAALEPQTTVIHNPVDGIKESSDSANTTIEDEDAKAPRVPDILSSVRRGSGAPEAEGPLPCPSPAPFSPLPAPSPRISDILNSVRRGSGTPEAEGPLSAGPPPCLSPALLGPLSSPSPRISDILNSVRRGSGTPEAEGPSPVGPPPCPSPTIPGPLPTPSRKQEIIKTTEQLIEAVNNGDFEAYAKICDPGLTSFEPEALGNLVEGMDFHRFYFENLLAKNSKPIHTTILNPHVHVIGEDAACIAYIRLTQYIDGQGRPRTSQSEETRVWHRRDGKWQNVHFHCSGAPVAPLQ", "sequence of UniProt O14730 (whole entry, looked up)": "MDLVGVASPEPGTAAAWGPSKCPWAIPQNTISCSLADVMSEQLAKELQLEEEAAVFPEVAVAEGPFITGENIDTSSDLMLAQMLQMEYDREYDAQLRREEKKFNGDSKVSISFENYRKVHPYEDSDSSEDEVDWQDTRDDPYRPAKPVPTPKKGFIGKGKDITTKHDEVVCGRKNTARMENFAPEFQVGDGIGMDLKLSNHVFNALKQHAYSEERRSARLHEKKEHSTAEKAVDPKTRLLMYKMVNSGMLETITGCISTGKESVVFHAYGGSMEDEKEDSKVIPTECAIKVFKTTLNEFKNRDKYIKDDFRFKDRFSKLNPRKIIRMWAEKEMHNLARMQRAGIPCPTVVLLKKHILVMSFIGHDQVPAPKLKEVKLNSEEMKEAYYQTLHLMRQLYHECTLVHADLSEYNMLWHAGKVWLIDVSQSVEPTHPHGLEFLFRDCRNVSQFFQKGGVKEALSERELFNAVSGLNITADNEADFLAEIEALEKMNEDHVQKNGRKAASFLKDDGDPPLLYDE", "sequence of UniProt Q9BUB5 (whole entry, looked up)": "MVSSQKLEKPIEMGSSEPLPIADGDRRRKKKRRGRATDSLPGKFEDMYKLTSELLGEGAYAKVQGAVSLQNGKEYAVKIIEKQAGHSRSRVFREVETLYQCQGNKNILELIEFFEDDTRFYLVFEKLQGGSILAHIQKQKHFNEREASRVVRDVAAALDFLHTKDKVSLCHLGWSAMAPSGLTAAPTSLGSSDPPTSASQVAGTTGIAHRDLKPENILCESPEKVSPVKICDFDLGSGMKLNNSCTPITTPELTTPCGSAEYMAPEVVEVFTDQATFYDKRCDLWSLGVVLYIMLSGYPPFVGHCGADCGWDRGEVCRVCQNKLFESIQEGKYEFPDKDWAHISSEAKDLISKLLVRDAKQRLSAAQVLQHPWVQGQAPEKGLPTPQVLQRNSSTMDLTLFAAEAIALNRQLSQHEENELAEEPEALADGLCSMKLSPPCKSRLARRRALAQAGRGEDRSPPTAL", "sequence of UniProt P17948 (whole entry, looked up)": "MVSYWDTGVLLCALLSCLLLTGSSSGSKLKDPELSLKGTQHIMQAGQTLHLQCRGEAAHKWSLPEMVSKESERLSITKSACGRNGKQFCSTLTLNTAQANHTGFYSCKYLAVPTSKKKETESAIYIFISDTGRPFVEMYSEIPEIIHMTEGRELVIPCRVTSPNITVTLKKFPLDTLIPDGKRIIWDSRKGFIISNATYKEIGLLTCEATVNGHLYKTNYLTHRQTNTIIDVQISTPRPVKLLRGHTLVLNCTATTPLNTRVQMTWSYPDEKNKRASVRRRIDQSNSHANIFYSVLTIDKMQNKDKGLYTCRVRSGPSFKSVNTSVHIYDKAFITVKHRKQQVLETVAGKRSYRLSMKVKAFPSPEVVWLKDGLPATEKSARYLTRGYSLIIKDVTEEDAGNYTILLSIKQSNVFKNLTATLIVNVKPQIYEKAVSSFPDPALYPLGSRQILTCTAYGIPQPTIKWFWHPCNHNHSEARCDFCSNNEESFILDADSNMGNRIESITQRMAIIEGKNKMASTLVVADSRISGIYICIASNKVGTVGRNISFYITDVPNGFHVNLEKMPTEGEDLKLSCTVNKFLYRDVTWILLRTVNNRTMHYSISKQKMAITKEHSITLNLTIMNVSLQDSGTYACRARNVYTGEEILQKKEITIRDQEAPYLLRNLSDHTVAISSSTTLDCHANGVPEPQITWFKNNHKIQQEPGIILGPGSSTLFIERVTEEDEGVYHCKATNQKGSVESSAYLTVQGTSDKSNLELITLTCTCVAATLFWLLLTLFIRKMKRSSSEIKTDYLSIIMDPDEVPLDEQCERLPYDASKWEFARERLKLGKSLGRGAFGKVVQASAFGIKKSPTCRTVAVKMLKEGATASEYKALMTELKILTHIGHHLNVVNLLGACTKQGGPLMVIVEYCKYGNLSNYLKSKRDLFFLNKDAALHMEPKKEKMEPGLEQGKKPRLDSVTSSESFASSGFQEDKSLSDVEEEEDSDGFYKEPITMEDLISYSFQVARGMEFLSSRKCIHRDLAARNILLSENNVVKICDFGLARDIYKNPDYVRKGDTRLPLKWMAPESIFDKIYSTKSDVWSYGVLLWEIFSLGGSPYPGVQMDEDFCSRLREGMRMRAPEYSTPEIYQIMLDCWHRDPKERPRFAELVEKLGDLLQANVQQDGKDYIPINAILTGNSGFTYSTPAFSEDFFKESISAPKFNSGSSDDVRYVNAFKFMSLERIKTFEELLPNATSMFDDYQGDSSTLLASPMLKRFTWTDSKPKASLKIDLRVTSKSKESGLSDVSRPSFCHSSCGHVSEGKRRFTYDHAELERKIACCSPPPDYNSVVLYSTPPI", "sequence of UniProt Q8TDX7 (whole entry, looked up)": "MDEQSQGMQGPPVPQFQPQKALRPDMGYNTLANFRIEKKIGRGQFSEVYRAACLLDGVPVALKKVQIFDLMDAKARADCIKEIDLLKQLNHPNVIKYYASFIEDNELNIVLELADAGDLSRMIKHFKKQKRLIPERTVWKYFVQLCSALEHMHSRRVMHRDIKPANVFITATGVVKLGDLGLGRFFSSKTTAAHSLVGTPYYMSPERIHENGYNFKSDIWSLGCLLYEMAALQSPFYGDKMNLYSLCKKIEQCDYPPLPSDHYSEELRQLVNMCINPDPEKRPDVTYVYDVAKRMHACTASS", "sequence of UniProt Q06187 (whole entry, looked up)": "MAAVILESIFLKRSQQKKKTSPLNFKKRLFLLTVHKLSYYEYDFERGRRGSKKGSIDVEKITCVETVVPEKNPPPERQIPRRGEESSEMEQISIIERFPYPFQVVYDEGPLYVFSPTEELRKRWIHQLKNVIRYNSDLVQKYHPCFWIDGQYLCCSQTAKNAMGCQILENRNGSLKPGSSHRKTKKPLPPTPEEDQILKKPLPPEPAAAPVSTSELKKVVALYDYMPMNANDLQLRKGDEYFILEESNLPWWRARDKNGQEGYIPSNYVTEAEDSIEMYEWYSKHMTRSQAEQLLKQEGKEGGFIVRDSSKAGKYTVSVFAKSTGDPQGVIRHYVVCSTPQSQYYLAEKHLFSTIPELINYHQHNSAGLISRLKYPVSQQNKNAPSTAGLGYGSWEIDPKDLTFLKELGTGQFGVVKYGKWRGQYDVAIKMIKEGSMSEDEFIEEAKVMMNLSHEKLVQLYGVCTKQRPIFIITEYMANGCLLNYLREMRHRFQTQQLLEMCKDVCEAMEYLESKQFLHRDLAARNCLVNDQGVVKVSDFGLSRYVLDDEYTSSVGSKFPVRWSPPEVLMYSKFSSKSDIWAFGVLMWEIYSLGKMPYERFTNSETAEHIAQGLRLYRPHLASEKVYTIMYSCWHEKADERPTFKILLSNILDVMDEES", "sequence of UniProt P52564 (whole entry, looked up)": "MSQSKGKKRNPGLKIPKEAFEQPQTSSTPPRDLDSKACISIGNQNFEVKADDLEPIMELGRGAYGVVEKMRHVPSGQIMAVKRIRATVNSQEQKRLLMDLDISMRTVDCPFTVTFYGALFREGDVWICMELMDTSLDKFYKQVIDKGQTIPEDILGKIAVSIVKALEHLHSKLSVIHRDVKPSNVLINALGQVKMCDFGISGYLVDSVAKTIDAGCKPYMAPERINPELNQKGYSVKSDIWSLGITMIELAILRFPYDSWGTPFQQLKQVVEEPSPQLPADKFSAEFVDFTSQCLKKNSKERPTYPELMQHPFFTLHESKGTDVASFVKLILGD", "sequence of UniProt O15264 (whole entry, looked up)": "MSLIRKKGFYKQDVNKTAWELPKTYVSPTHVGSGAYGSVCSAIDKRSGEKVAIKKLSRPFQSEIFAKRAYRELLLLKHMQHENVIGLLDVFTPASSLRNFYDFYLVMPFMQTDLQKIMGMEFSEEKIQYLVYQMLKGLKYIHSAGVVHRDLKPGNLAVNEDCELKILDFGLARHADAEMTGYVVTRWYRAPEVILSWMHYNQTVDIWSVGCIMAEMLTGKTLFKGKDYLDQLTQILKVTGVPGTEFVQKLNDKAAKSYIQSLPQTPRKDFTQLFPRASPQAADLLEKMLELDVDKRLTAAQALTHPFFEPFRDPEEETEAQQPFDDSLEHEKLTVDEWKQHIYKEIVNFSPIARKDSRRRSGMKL"}
{"data": "Study 1", "cell line": "HaCaT", "concentration": "100 µM", "time": "60 h"}
{"SMILES": "CCn1cc(C(=O)O)c(=O)c2ccc(C)nc21", "viability": "117%"}
{"SMILES": "COc1ccc(-c2cc(=S)ss2)cc1", "viability": "107%"}
{"SMILES": "COc1ccc2c(c1)c(CC(=O)OCC(=O)O)c(C)n2C(=O)c1ccc(Cl)cc1", "viability": "115%"}
{"SMILES": "CN/C(=N/CCSCc1nc[nH]c1C)NC#N", "viability": "124%"}
{"SMILES": "COc1ccc2[nH]c(SCc3ncc(C)c(OC)c3C)nc2c1", "viability": "91.4%"}
{"SMILES": "O=c1cc(-c2ccccc2)oc2cc(O)c(O)c(O)c12", "viability": "39.8%"}
{"data": "Study 2", "Structure (SMILES)": "CC(C)[C@H](CO)Nc1nc(Nc2cccc(Cl)c2)c2ncn(C(C)C)c2n1", "read-out": "enzyme activity", "mode": "inhibitor", "concentration": "0.5 µM", "baseline": "control"}
{"target": "Tyrosine-protein kinase BTK (BTK, Homo sapiens, UniProt Q06187)", "remaining activity [%]": 75.6}
{"target": "Mitogen-activated protein kinase kinase kinase kinase 2 (MAP4K2, Homo sapiens, UniProt Q12851)", "remaining activity [%]": 97.6}
{"target": "Serine/threonine-protein kinase 38 (STK38, Homo sapiens, UniProt Q15208)", "remaining activity [%]": 90.5}
{"target": "Casein kinase II subunit alpha (CSNK2A1, Homo sapiens, UniProt P68400)", "remaining activity [%]": 101}
{"target": "Mitogen-activated protein kinase 13 (MAPK13, Homo sapiens, UniProt O15264)", "remaining activity [%]": 122}
{"target": "RAC-gamma serine/threonine-protein kinase (AKT3, Homo sapiens, UniProt Q9Y243)", "remaining activity [%]": 102}
{"target": "Dual specificity mitogen-activated protein kinase kinase 6 (MAP2K6, Homo sapiens, UniProt P52564)", "remaining activity [%]": 105}
{"target": "Protein kinase C delta type (PRKCD, Homo sapiens, UniProt Q05655)", "remaining activity [%]": 104}
{"data": "Study 3", "SMILES": "Cc1c(NC(=O)c2cc(C(N)=O)nc3cc(F)ccc23)c(C(F)(F)F)nn1Cc1ccc(C(C)(C)C)cc1", "read-out": "cell-free assay", "technique": "competition with immobilised ligand", "concentration": "1 µM"}
{"target": "Tyrosine-protein kinase ABL1, phosphorylated (ABL1, Homo sapiens, UniProt P00519, Y253F)", "remaining binding": "100%"}
{"target": "Tyrosine-protein kinase Blk (BLK, Homo sapiens, UniProt P51451)", "remaining binding": "72%"}
{"target": "Serine/threonine-protein kinase Nek7 (NEK7, Homo sapiens, UniProt Q8TDX7)", "remaining binding": "100%"}
{"target": "cGMP-dependent protein kinase 2 (PRKG2, Homo sapiens, UniProt Q13237)", "remaining binding": "100%"}
{"target": "Interferon-induced, double-stranded RNA-activated protein kinase (EIF2AK2, Homo sapiens, UniProt P19525)", "remaining binding": "100%"}
{"target": "Cyclin-dependent kinase 2 (CDK2, Homo sapiens, UniProt P24941)", "remaining binding": "88%"}
{"target": "Serine/threonine-protein kinase N2 (PKN2, Homo sapiens, UniProt Q16513)", "remaining binding": "100%"}
{"target": "Vascular endothelial growth factor receptor 1 (FLT1, Homo sapiens, UniProt P17948)", "remaining binding": "100%"}
{"target": "MAP kinase-interacting serine/threonine-protein kinase 1 (MKNK1, Homo sapiens, UniProt Q9BUB5)", "remaining binding": "100%"}
{"target": "Platelet-derived growth factor receptor beta (PDGFRB, Homo sapiens, UniProt P09619)", "remaining binding": "76%"}
{"target": "Epidermal growth factor receptor (EGFR, Homo sapiens, UniProt P00533, del747-752/P753S)", "remaining binding": "96%"}
{"target": "Dual specificity protein kinase CLK2 (CLK2, Homo sapiens, UniProt P49760)", "remaining binding": "76%"}
{"target": "Activin receptor type-2A (ACVR2A, Homo sapiens, UniProt P27037)", "remaining binding": "100%"}
{"target": "Tyrosine-protein kinase JAK3, JH1 (JAK3, Homo sapiens, UniProt P52333)", "remaining binding": "100%"}
{"target": "Serine/threonine-protein kinase RIO3 (RIOK3, Homo sapiens, UniProt O14730)", "remaining binding": "97%"}
{"target": "Cyclin-G-associated kinase (GAK, Homo sapiens, UniProt O14976)", "remaining binding": "98%"}
{"target": "Calcium/calmodulin-dependent protein kinase type II subunit beta (CAMK2B, Homo sapiens, UniProt Q13554)", "remaining binding": "98%"}
{"target": "Calcium/calmodulin-dependent protein kinase type 1 (CAMK1, Homo sapiens, UniProt Q14012)", "remaining binding": "82%"}
{"data": "Study 4", "cell line": "mouse MPNST tumor cells", "technique": "high-content nuclear imaging", "item": "cell number", "concentration": "10 µM", "time": "12 h", "notes": "mean of 2 replicates", "baseline": "plate mean", "direction": "higher = more cells"}
{"SMILES": "Cc1nc2sccn2c(=O)c1CCN1CCC(=C(c2ccc(F)cc2)c2ccc(F)cc2)CC1", "nuclei count": "1.82 z-score"}
{"SMILES": "Oc1ccc(/C=C/c2cc(O)cc(O)c2)cc1", "nuclei count": "-2.52 z-score"}
{"SMILES": "COc1ccc(C(=O)Nc2c(Cl)cncc2Cl)cc1OC1CCCC1", "nuclei count": "1.6 z-score"}
{"SMILES": "Cc1cc(O)c(C(=O)N[C@@H](C(=O)N[C@@H]2C(=O)N3C(C(=O)O)=C(CSc4nnnn4C)CS[C@H]23)c2ccc(O)cc2)cn1", "nuclei count": "0.197 z-score"}
{"SMILES": "COc1ccc(S(=O)(=O)N2CCC[C@H]2C(=O)Nc2cc(C)cc(C)c2)cc1", "nuclei count": "1.11 z-score"}
{"SMILES": "Cn1nnc2c(C(N)=O)ncn2c1=O", "nuclei count": "1.86 z-score and 2.03 z-score and 0.0321 z-score"}
{"SMILES": "O=C(NC1CCC1)c1ccc(C#Cc2cccc(F)c2)nc1", "nuclei count": "-2.68 z-score"}
{"SMILES": "CNC(C)CCC=C(C)C (centres unmarked)", "nuclei count": "0.388 z-score"}
{"SMILES": "Clc1ccc(CO/N=C(\\Cn2ccnc2)c2ccc(Cl)cc2Cl)c(Cl)c1", "nuclei count": "0.624 z-score"}
{"note": "Excerpt of the above (study 3):"}
{"target": "cGMP-dependent protein kinase 2 (PRKG2, Homo sapiens, UniProt Q13237)", "remaining binding": "100%"}
{"target": "Dual specificity protein kinase CLK2 (CLK2, Homo sapiens, UniProt P49760)", "remaining binding": "76%"}
{"target": "Tyrosine-protein kinase JAK3, JH1 (JAK3, Homo sapiens, UniProt P52333)", "remaining binding": "100%"}
